Results pooled from the literature.
Numbered parts are unrelated; each lists some results of a single study. Positions count from the first letter of the parent shown.

Series 1 — technique: RNA Bind-n-Seq; form: RNA; sample: in vitro; tested at: not given; baseline: input RNA pool; direction: higher = stronger binding
Target: RING finger protein unkempt homolog, zinc fingers 1-6, GST-SBP tag (UNK, Homo sapiens, UniProt Q9C0B0, residues 30-357)
Sequence of UniProt Q9C0B0 (30-357, looked up): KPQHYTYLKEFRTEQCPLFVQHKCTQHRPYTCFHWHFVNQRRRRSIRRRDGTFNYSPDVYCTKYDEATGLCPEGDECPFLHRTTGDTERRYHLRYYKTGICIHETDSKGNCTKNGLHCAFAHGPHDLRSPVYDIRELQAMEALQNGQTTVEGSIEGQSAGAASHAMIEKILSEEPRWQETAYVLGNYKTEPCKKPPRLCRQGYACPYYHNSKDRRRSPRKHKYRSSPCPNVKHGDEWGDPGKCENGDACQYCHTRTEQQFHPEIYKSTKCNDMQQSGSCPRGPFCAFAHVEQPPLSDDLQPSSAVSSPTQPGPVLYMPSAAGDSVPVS
Notes: RNA with constant flanks, human and mouse sites, ends assumed
Constant ends, left off below: GGGAGUUCUACAGUCCGACGAUC … CAACAGAGGAUUGAGCAUCA
Oligonucleotide | bound/input enrichment
UAGCCCUGGGGCCAUGUUCGAGUGGGGCUCUCAGCGCCUGGAGGUGAGCCACGUGCACAAAGUGGAGUGCGUGAUCCCCUGGCUCAACGACGCCCUGGUCUACUUCACCGUCUCCCUGCA | 0.104 ratio
AUCCAGGCCCUCCGCUGGGUGAGCGAGAAUAUUGCCUUCUUCGGGGGAGACCCCCGCCGGAUCACUGUCUUUGGCUCGGGCAUUGGUGCAUCCUGCGUCAGCCUCCUCACGUUGUCACAU | 0.186 ratio
AUUGAGUAUAAACUCAUCUACUUCAAAUUUAUUUUAUAACACAACCUAAGAUACUCAAGAUAAUUAUUUAAUGGUUAGCUCUUAAGUUGAAUUGGUCUACAUAAUGCGUGGGAAGAAAAC | 0.963 ratio
CCUCCCGGCCUCCUCUUGCCAGAUCUGCUCUGAAAAACUGCUCAAUGAAGCUGAUUUUUGGUUGUUUCUGUCACAGGACUCAGGGUGACAGAAAUCAAUAAAUAGAAUGCAAGUACUGCC | 0.286 ratio
AAGACCAUCACCCUGGAGGUGGAGCCCAGUGACACCAUCGAGAACGUGAAGGCCAAGAUCCAGGAUAAAGAGGGCAUCCCCCCUGACCAGCAGAGGCUGAUCUUUGCCGGCAAGCAGCUG | 0.0848 ratio
GGUCCCGCCUGUGGCAGCAUCCUUGGGCCAGGGCCACAGCCGAUAUCUUAUACGACCUGUGUUUAGGACAUUUUUUAAAUCAUUGUGUCUAAGCAUCUCAGAGUCAAGUGUGCUUCUUUG | 0.18 ratio
UUCAAAGAGAAAACCCAGCAGUGGAAAUUGCUUGGUCAAUCUCAAGAUAAUGAAAAGGAAUUAGCUGCUCUCUUCCACCUGUGGCUGGAAACCAAAGACCAGGCCUUCUGUAAGGAAAAU | 0.162 ratio
ACACUUUGCGGUAGAUUAAGGAAUAUACUGCAUAUUUCUUUUUUUAAACUCGGGAUAUUGAACUUCAGAAAACAAAUAUUAGCACAAAACACUAAAAUAGUGUUAACAAAAGGAGAUAUU | 1.45 ratio
GGCUGCAUAACUGGAGUCUGUAGAACAGAGCUGAAGCUAAGGAUUUAAAUGUGGUCACCGUCCCUGGAGGAUUUGUUGGUCCUGGGUCUACAGUACUGUGAUACAAGGUGACUCAGUGGG | 0.336 ratio
UCUUGGUCUCCAAGUCCUGCACCUUACUUUGAAACACCACUGGCUCCCUUUCCCAAUGGUAGUUUUGUGAAUGGCUUUAGUUCACCAGGAUCUUACAAAACAAAUGCUGCUGCUAUGAAU | 0.428 ratio
UCCGGAGUCUUCAAUGUAUCAGAGCUUGUGAGAGUAUCCAGAACACCCAUAACCCAGGGAACUGGAGUCAACUUCCCAAUCGGAGAAAUUCCCAGCCAACCAUACUAUCAUGACAUGAAC | 0.304 ratio

Series 2 — technique: protein binding microarray; form: double-stranded DNA, one strand shown; sample: in vitro; tested at: not given; baseline: not given; direction: higher = stronger binding
Target: Histone acetyltransferase KAT6A, winged helix 1, GST fusion (KAT6A, Homo sapiens, UniProt Q92794, residues 1-85)
Notes: 8-mer, flanks averaged, mean of 2 arrays, mostly near background
Construct (chain): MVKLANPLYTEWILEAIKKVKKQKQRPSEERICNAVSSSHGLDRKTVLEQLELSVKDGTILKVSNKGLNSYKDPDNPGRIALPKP
Oligonucleotide | E-score
GCAGTAGA | -0.0867
AAGGGATA | -0.182
AGTCCTTA | -0.0436
CCTGCTCA | -0.151
CTTGGGTC | -0.201
GGCCTCAA | -0.107
TGCACGAA | -0.069
ACCCTAAA | -0.129
GGCACCAC | 0.131
GAAACGGC | 0.239
AGTGAAGC | -0.0428
CAGATGAC | -0.0152
ATGTCACA | -0.119
AAGCCGGT | 0.316
GAGACCTC | -0.25
GGCAACCA | 0.0409
CCTCCAGA | -0.0944
ATAGGTTA | 0.0248
CTATAACC | -0.168
TCAGGGAA | -0.0585
CGACAGGC | 0.0532
GCGTGCTA | 0.107
TATCAACA | -0.179
AGGCTTCC | -0.0425
TGACACCA | -0.209

Series 3 — technique: RNA Bind-n-Seq; form: RNA; sample: in vitro; tested at: 365 nM; baseline: no-protein control; direction: higher = stronger binding
Target: RNA binding protein fox-1 homolog 2, RRM domain, GST-SBP tag (RBFOX2, Homo sapiens, UniProt O43251-10, residues 100-194)
Notes: natural RNA segment, single round, ends assumed
Constant ends, left off below: GGGAGUUCUACAGUCCGACGAUC … UGGAAUUCUCGGGUGCCAA
Construct (chain): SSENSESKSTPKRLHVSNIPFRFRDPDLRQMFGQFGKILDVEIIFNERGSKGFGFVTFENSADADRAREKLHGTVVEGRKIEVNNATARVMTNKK
Oligonucleotide | RBNS enrichment (R)
UGGACUCAGCUGCCUGUGAAUGCUGCUCACACGAGCCAAAUGUAGGACCUCAGGAACAAUGUUGAUAGACCAUUUACAGGACUGUCAAGAAGCAGACUCAAUUCGAGAAU | 0.409
UCACUGUCCCCAUCGGCUCCUCAGAGUUGUUGGCCACCCUACCACUAACUGGAAGAGGAAACGCUGGGGCUGCAGUGAGGGCUCCAAGCUUCUCAGUGCCAACCACGCCC | 0.201
CUUCAGCAUGGAGAGGACACCGUGCCCCAGGGGCCUGAGUCUCAGGCAGAGUCCAUCCCAAUAAUAGUAACUCCUGCUCCUGAAAGCAUCCUACAUUCUGACCUUCAAAG | 0.886
GAGGGCUGCUCCGGAGACCGUCACUCCAGGUGCAUUCUGGAAGCAUUAGACCCCAGGAUGGAGCGACCAGCAUGUCAUCCAUGUGGAAUCUUGGUGGCUUUGAGGACAUU | 2.83
CACCCAAUAAUAAGAUCAGAAGAUAUUUAAUUCUUUUCACAUUUUAUUUAUUUAAAGUGGAAAUUCUAAGCCUUCCAGUAUAUACCCUUGUCAUGAGAAAAGAGGUACAU | 0.475
AGGUUGCAGUGAGCUGAGAUUGCACCACUGUACUCCAACCUGGGCGACAGAGCAAGACUGUGUCUCAAAAAGAAAAAAAUUUGUUCAAAAGACAUAAAUGAAUUAGGCAC | 0.492
CGCAAUGUUAGAAGAUGCCAUAAAGUCACAUGGACAACUCAUGGUACUUUUUCUGGGUUGGCAAUUUGAUGACCACUUUGGUUCAGUCAAAAUGUGUGUACUUUUGGGCC | 0.293
GGCAUUUCUUUAUGGAUGGAAUUGGAACAUGAACAAGACCAUGUCCAGCGUUUUUACUGUGAAUGUAAAUGGAACAGCAGCCCAAAGCUGUUGUCUGUGCCCCAGAGGUG | 0.309
GAUAAAACUGUGUAAACCACAUAAUUUUUGUACAUCCCAAAGGAUGAGAAUGUGACCUUUAAGAAAAAUGAAAACUUUUGUAAAUUAUUGAUGAUUUUGUAAUUCUUAUG | 0.601
CAAUCCUCCCAAUAUGCUGGGAUUACAGGCAUGAGCCACCACCUGGCCCAAGCAAGAAAUUGACACUAUAUAGUUAUUUAAGGUAGUCAGGCAGUAGAAACAUUGCCAGA | 0.368
AUGCCAGCUGCCGUUGGAGACGCAAAGCCAAGCAAGGGUCAGGAGGGAAGCUGGCCCGGCUGACUGGAGAAUGGGAACCCCAGGACUCUCCACUCAUCUCGAAGGGUUGU | 0.428
UUUUAAAUAAGAAAAUAAUCUACACAGUCAAGAUACCUAGCAAAUAAGUGGUGCCAUUGGAAUGUCAGCAUUGCUUGAGUGUCAUGCUGAGGGAUGGUCCUGACAGUAAA | 0.647

Series 4 — technique: protein-binding microarray; form: double-stranded DNA, one strand shown; sample: in vitro; tested at: 2200 nM top; notes: 60-bp whole probe; with: salmon DNA 0.4 mg/ml; baseline: random background probes; direction: higher = stronger binding; constant ends, left off below: GCCTAGCAC … GTCTTGATTCGCTTGACGCTGCTG
Target: Interferon regulatory factor 7, full length, phosphomimetic (IRF7, Homo sapiens, UniProt Q92985, residues 1-503, S471D/S472D/S475D/S476D/S477D/S483D/S484D/S487D)
Target sequence (chain): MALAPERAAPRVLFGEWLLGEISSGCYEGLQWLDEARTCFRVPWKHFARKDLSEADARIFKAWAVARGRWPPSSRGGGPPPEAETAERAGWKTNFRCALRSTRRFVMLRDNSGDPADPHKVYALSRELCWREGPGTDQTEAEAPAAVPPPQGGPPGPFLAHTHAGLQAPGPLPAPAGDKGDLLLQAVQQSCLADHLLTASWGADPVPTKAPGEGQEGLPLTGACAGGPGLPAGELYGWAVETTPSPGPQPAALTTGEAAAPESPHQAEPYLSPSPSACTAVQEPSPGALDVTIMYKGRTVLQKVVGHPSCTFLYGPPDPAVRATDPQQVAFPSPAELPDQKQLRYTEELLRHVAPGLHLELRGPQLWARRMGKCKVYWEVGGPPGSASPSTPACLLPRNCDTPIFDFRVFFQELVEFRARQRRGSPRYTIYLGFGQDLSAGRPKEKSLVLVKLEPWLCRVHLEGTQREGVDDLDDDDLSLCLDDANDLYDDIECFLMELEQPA
Oligonucleotide | fitted relative affinity [z-score]
GACGGTCTACTTTTCCTGACGTGCTAG | 1.23
TTAGATTTCTGGTTTCGATTAGTGCTA | 5.38
CCTCAGCTCCCTTTCTCTCTGTGCTAG | 1.21
GACGATTTCGAGTTTCGAGACGTGCTA | 4.6
TTAGAACTGATTTTCGATTAGTGCTAG | 3.72
GATGATATCGGGTTTCGAGACGTGCTA | 1.59
CTATTTTTCACCTGCACTCAGTGCTAG | 2.55
TTAGATTTCAGTTTCGATTAGTGCTAG | 8.07
TGCTGGTTTTGTGGTCTAATGTGCTAG | 0.843
GACGGTCTCGGACAGGGGACGTGCTAG | -0.388
CACGGTCTCCTTATCCTGACGTGCTAG | 1.13
TTATGACTGGGTATCGGTTAGTGCTAG | 0.48
TTAGAACTGAGACTGGATGAGTGCTAG | -0.68
TCAGTCCTGGCTTTGACACTGTGCTAG | 0.535
GACGGACTGGGTTTCGGGAGGTGCTAG | 0.271
CTTTAACTCATTTTCATTTTGTGCTAG | 4.66
GACGATTTCGGGAATGGAGACGTGCTA | 0.858
GACGATTCCTGTTTCGAGACGTGCTAG | 3.26
GACCAACTGGGGTATCGAGACGTGCTA | -0.461
GATGGACTGGGTTTCGGGACGTGCTAG | 1.37
GAAGGACTGGACTATCGGGACGTGCTA | -0.902
ACCTGAGTCCCTATCTCCTCGTGCTAG | 1.1
TTAGATATCTGTCTCGATTAGTGCTAG | 0.545

Series 5 — target: CCNB1, cyclin fold, Cln2 fusion (human); technique: yeast growth competition, sequencing; sample: yeast; notes: weak parent motif; baseline: not given; direction: higher = stronger binding
Starting sequence: CABLES2 docking peptide (human); ICAKRSLCAAFSV
Change | normalised enrichment score
ICAARSLCAAFSV [K4A] | -0.0548
ICAKRALCAAFSV [S6A] | 0.371
ICAKRSACAAFSV [L7A] | -0.134
ACAKRSLCAAFSV [I1A] | -0.114
IAAKRSLCAAFSV [C2A] | -0.0462

Series 6 — technique: universal PBM; form: double-stranded DNA, one strand shown; sample: in vitro; tested at: not given; direction: higher = stronger binding
Target: Sal-like protein 4, full length isoform B (SALL4, Homo sapiens, UniProt Q9UJQ4-2, residues 1-616)
Notes: 8-mer, flanks averaged, mean of replicates
Oligonucleotide | E-score
AAGTGAGA | 0.0134
GGATGGAA | -0.0948
GTAATCAC | 0.0827
TTACACAA | 0.255
ACAGTAAG | -0.0543
GAAGGGTA | -0.0427
CCCCCCCA | -0.267
CACAGCAG | -0.0443
AGCAGCAG | -0.161
GGGCCCCC | -0.457
CGATGGCG | -0.283
AAGTCAGC | -0.171
CAAGTTGG | -0.0592
GGCAACCA | -0.214
ATCAATGG | 0.0424
CGGGCCAC | -0.304
GAGTGAAA | 0.223
ATCGCGTG | -0.0948
TCAACGAA | -0.0418
AAGACGCG | -0.1
TTACTCAA | 0.239
AACGGTTG | 0.13
ACGTGTCG | -0.0286
AGTCGCGG | -0.313

Single results of other studies
Substance | target | test | system | setting | scale | measurement | value
PhoQ, residues 284 288 289 292 302 303 NLALSC | PhoP, residues 12 14 15 18 19 SYFRT (Escherichia coli, UniProt P23836) | Sort-seq, refers to: YFP reporter | E. coli | PhoQ-PhoP variant library, with: 10 µM Mg2+ | baseline: high Mg2+ state, higher = stronger signaling | fold induction | 4.41

Excerpt of the above (series 6):
Oligonucleotide | E-score
TTACTCAA | 0.239
AACGGTTG | 0.13
ACGTGTCG | -0.0286
GAAGGGTA | -0.0427
CACAGCAG | -0.0443
CCCCCCCA | -0.267
